Measurements of several laboratories.
Each line is one published result; not all experiments were run side by side.
Target: Dual specificity protein kinase CLK4 (CLK4, Homo sapiens, UniProt Q9HAZ1)
Chain of UniProt Q9HAZ1 (whole entry, looked up): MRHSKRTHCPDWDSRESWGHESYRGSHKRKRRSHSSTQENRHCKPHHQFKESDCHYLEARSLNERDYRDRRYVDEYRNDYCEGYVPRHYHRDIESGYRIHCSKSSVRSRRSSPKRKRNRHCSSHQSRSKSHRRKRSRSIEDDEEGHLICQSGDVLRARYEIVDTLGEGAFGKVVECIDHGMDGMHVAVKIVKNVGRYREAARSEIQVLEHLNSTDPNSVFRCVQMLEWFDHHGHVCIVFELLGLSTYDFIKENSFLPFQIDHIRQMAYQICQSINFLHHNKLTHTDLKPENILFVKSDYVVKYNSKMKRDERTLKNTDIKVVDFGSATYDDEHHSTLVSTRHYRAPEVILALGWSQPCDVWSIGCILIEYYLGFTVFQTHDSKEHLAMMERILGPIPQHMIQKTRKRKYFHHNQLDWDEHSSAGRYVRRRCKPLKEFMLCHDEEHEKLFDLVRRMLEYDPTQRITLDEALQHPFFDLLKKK

C=CC(=O)N1CCc2ccc(-n3c(=O)ccc4cnc5ccc(-c6cnn(C)c6)cc5c43)cc21  remaining binding (KINOMEscan; 1 µM; reference: DMSO control): 95%
Nc1ncc2c(n1)-c1c([nH]c3ccc(C4=CCOCC4)cc13)CCC2  remaining binding (binding, competition with immobilised ligand; 1 µM): 84%
CNC(=O)C1CCN(c2cc(C)c(F)cc2NC(=O)c2ccc(-c3cc(O)ccc3C)c(C)c2)CC1  remaining binding (binding, competition with immobilised ligand; 1 µM): 80%
COc1cc(Nc2nc(C)cc(-c3cnn4nc(OC)ccc34)n2)cc(C(F)(F)F)c1  remaining binding (binding, competition with immobilised ligand; 1 µM): 98%
NC(=O)[C@@H](O)C[C@H]1CCc2sc3ncnc(O[C@H]4CC[C@H](N5CCOCC5)CC4)c3c21  inhibition (enzyme activity, inhibitor; 10 µM): 84%
O=C(Cc1ccc(OCc2ccccc2)cc1)NC1(C(=O)O)CCN(C(=O)c2ccc(-c3cccc(Cl)c3)cc2)CC1  activity vs control (enzyme activity, inhibitor; 10 µM): 89%
CNC1C[S+]2CC[S+]3CC[S+](C1)[Ru-4]321([N]=C=S)[n]2c3ccc(OC)cc3c3c4c(c5cc(F)c[n+]1c5c32)C(=O)NC4=O (stereo not shown)  remaining binding (KinomeScan; 0.1 µM; reference: untreated): 50%
CCn1cc(C(=O)O)c(=O)c2c(N)c(F)c(NC3CCCCC3)cc21  inhibition (kinase activity; 0.1 µM, together with: ATP at Km): 3.8%
C=CC(=O)N1CCCC(n2c(=O)c3ncccc3n(Cc3ccc(Oc4ccccc4)cc3)c2=O)C1 (stereo not shown)  remaining binding (cell-free assay, competition with immobilised ligand; 1 µM): 83%
CC(C)=CC1OC(C)(C)C2C=C3C(=O)C(Cl)=CC(O)C3C3C(O)C4OC4C(=O)C132 (stereo not shown)  remaining binding (cell-free assay, competition with immobilised ligand; 10 µM): 76%
CN1CC[C@@H](COc2cnc(C#N)cc2-c2ccn3nc(NC(=O)C4CC4)cc3c2)C1  inhibition (enzyme activity, inhibitor; 1 µM): -5%
C=CC(=O)Nc1cccc(-c2cnc3[nH]cc(C(=O)NC(C)(C)C)c3n2)c1  inhibition (kinase activity; 0.1 µM): 103%
Cc1cccc(O[C@H]2CCC[C@@H](C(C)CNCc3ccncc3)C2)c1 (relative stereo)  inhibition (enzyme activity, inhibitor; 10 µM): 0%

Excerpt of the above:
CCn1cc(C(=O)O)c(=O)c2c(N)c(F)c(NC3CCCCC3)cc21  inhibition (kinase activity; 0.1 µM, together with: ATP at Km): 3.8%
COc1cc(Nc2nc(C)cc(-c3cnn4nc(OC)ccc34)n2)cc(C(F)(F)F)c1  remaining binding (binding, competition with immobilised ligand; 1 µM): 98%
